Experimental data collected from several papers.
Each line is one published result; not all experiments were run side by side. Numbers after ± are the reported error.
Replicase polyprotein 1a 3C-like proteinase: Replicase polyprotein 1a, 3C-like proteinase (Ferret coronavirus, UniProt A0A172B201)
CDK2 with cyclin A: Cyclin-dependent kinase 2, with cyclin A (CDK2, Homo sapiens, UniProt P24941)
MED23 with ELF3: Mediator of RNA polymerase II transcription subunit 23, with ELF3 (MED23, Homo sapiens, UniProt Q9ULK4)
Urease: Urease (Canavalia ensiformis, UniProt P07374)
UniProt P07374, sequence (whole entry, looked up): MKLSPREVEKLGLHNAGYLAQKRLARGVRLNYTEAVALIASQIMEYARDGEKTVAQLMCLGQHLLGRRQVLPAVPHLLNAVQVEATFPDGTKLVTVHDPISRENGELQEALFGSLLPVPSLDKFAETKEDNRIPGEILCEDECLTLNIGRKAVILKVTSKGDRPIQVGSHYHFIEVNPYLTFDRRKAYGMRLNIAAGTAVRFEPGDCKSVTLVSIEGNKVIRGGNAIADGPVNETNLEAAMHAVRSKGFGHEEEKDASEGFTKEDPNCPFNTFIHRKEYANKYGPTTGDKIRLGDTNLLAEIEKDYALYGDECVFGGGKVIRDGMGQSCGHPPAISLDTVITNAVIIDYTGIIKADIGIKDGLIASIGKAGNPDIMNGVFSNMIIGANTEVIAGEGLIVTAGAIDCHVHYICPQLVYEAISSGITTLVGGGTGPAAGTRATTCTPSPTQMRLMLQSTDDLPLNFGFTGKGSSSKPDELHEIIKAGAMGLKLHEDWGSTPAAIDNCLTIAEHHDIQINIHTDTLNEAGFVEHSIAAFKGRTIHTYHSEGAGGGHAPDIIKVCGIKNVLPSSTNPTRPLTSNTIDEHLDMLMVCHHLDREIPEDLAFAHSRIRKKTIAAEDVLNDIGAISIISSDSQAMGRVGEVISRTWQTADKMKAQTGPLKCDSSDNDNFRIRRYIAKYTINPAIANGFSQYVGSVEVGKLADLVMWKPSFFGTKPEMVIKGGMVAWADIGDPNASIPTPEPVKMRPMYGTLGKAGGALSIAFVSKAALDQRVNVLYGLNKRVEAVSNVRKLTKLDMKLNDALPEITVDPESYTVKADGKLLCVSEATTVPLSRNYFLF
CDK8: Cyclin-dependent kinase 8 (CDK8, Homo sapiens, UniProt P49336)
UniProt P49336, sequence (whole entry, looked up): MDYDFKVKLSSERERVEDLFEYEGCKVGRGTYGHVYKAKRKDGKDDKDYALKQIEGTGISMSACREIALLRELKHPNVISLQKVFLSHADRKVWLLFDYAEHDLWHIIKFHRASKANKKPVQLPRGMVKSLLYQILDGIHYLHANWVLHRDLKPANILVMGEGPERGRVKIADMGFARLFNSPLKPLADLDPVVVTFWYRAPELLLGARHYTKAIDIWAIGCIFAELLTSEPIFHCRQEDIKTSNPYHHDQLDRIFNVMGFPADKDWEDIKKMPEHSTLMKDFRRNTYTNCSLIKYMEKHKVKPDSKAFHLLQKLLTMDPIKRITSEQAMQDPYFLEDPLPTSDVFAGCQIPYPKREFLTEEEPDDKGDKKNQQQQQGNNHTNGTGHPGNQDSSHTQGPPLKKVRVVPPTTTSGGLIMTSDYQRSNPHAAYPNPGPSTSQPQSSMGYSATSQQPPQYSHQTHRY
crk3: crk3 (Leishmania mexicana, UniProt O15851)
Replicase polyprotein 1ab main protease: Replicase polyprotein 1ab, main protease (Feline coronavirus, UniProt Q98VG9)
Plasmepsin X: Plasmepsin X (Plasmodium falciparum, UniProt Q8IAS0)
UniProt Q8IAS0, sequence (whole entry, looked up): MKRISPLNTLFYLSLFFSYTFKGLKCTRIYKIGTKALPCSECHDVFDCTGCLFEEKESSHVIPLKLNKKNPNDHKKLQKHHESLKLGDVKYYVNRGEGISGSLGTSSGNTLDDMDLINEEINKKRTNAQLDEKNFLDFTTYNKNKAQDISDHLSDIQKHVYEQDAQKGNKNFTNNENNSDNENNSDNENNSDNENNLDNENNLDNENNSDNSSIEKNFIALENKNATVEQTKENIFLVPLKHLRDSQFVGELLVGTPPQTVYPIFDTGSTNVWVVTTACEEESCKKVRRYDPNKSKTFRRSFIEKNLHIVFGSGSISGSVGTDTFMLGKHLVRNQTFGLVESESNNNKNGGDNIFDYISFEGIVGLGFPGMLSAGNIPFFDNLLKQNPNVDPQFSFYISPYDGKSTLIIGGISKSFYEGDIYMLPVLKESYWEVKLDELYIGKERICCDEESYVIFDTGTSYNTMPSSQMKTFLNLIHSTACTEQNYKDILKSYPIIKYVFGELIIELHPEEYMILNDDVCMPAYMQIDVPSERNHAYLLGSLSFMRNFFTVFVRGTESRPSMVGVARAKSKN
UniProt P00797, sequence (whole entry, looked up): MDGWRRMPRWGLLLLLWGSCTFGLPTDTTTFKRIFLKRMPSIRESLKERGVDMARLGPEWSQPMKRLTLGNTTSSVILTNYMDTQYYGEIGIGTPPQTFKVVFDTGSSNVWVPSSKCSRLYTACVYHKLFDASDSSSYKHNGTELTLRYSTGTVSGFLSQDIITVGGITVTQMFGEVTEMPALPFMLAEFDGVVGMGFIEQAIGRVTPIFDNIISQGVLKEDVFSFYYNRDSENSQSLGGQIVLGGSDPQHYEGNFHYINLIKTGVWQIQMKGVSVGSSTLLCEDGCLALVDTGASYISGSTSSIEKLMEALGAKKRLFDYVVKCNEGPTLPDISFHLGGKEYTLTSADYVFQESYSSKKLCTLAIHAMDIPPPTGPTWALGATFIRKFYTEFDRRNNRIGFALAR

CC(C)C[C@H](NC(=O)OCc1ccccc1)C(=O)N[C@@H](C[C@@H]1CCNC1=O)C(=O)C(=O)NC1CCCCC1 — IC50 (Replicase polyprotein 1a 3C-like proteinase; enzyme activity, FRET; NL-2010): 830 ± 410 nM
Cc1cccc(-c2ccc3nc(NC(=O)CC4CCCCC4)nn3c2)c1 — IC50 (CDK2 with cyclin A; enzyme activity, inhibitor): > 100000 nM
O=C(C=Cc1ccc(O)cc1)c1cccc(O)c1 — IC50 (MED23 with ELF3; SEAP reporter gene, inhibitor): 3960 ± 40 nM
CC(C)C[C@H](NC(=O)[C@@H](NC(=O)[C@H](CCONC(=N)N)NC(=O)OCc1ccccc1)C(C)C)[C@@H](O)CC(=O)NCCc1ccccc1 — IC50 (Renin (REN, Homo sapiens, UniProt P00797); enzyme activity, inhibitor): > 1000 nM
CCN(CC)c1ccc(C2CC(c3ccccc3O)=NN2c2ccccc2)cc1 (centres unmarked) — IC50 (Urease; enzyme activity, inhibitor, absorbance; pH 8.2): 13300 nM
CC(C)C[C@H](NC(=O)OCc1ccccc1)C(=O)N[C@@H](C[C@@H]1CCNC1=O)C(O)S(=O)(=O)O (some centres unmarked) — IC50 (Replicase polyprotein 1a 3C-like proteinase; enzyme activity, FRET; NL-2010): 1330 ± 190 nM
CNC(=O)NC1=CC(=O)CC(C)(C)C1 — IC50 (CDK2 with cyclin A; enzyme activity, inhibitor): > 100000 nM
Oc1ccccc1C1=NN(c2ccccc2)C(c2cccc(C(F)(F)F)c2)C1 (centres unmarked) — IC50 (Urease; enzyme activity, inhibitor, absorbance; pH 8.2): 18400 nM
COc1cccc(NS(=O)(=O)c2ccc3c(c2)C(=C(C)C)C(=O)N3)c1 — IC50 (CDK8; enzyme activity, inhibitor, FRET): > 10000 nM
COc1ccc(C=CC(=O)c2ccccc2O)cc1 — IC50 (MED23 with ELF3; SEAP reporter gene, inhibitor): 1980 ± 340 nM
Cc1cccc(-c2ccc3nc(N)nn3c2)c1 — IC50 (CDK2 with cyclin A; enzyme activity, inhibitor): 37000 nM
CC(C)=C1C(=O)Nc2ccc(S(=O)(=O)Nc3ccc(Cl)cc3)cc21 — IC50 (CDK8; enzyme activity, inhibitor, FRET): 2570 nM
Cc1cccc(-c2ccc3nc(NC(=O)c4ccccc4)nn3c2)c1 — IC50 (crk3; enzyme activity, inhibitor, radiometric): 1100 nM
Oc1ccccc1C1=NN(c2ccccc2)C(c2cccs2)C1 (centres unmarked) — IC50 (Urease; enzyme activity, inhibitor, absorbance; pH 8.2): 29500 nM
CC(C)=C1C(=O)Nc2ccc(S(=O)(=O)NCc3ccc(C)cc3)cc21 — IC50 (CDK8; enzyme activity, inhibitor, FRET): > 10000 nM
O=C(N[C@@H](CC1CCCCC1)C(=O)N[C@@H](C[C@@H]1CCNC1=O)C(O)S(=O)(=O)O)OCc1ccccc1 (some centres unmarked) — IC50 (Replicase polyprotein 1ab main protease; enzyme activity, inhibitor, FRET): 420 nM
CC(C)=C1C(=O)Nc2ccc(S(=O)(=O)Nc3cccc4c3CCCC4)cc21 — IC50 (CDK8; enzyme activity, inhibitor, FRET): > 10000 nM
O=C(Nc1nc2ccc(-c3cccc4ccccc34)cn2n1)C1CCCCC1 — IC50 (crk3; enzyme activity, inhibitor, radiometric): 90 nM
O=C(C=Cc1ccc(Cl)cc1)c1cccc(O)c1 — IC50 (MED23 with ELF3; SEAP reporter gene, inhibitor): 2970 ± 40 nM
CC(C)C[C@H](NC(=O)[C@@H](NC(=O)[C@H](CCCNC(=N)N)NS(=O)(=O)Cc1ccccc1)C(C)C)[C@@H](O)CC(=O)NCCc1ccccc1 — IC50 (Plasmepsin X; enzyme activity, inhibitor): 990 nM
O=C(N[C@@H](CC1CCCCC1)C(=O)N[C@@H](C[C@@H]1CCNC1=O)C(=O)C(=O)NC1CC1)OCc1cccc(Cl)c1 — IC50 (Replicase polyprotein 1ab main protease; enzyme activity, inhibitor, FRET): 6570 nM
CC(=O)c1cccc(NS(=O)(=O)c2ccc3c(c2)C(=C(C)C)C(=O)N3)c1 — IC50 (CDK8; enzyme activity, inhibitor, FRET): 1490 nM
Cc1cc(C)cc(-c2ccc3nc(NC(=O)C4CCCCC4)nn3c2)c1 — IC50 (CDK2 with cyclin A; enzyme activity, inhibitor): > 100000 nM
CN(C)c1ccc(C2CC(c3ccccc3O)=NN2c2ccccc2)cc1 (centres unmarked) — IC50 (Urease; enzyme activity, inhibitor, absorbance; pH 8.2): 15600 nM
O=C[C@H](C[C@@H]1CCNC1=O)NC(=O)[C@H](CC1CCCCC1)NC(=O)OCc1cccc(Cl)c1 — IC50 (Replicase polyprotein 1a 3C-like proteinase; enzyme activity, FRET; NL-2010): 980 ± 360 nM
Cc1ccc(NC(=O)Nc2ccnc(-c3cccnc3)n2)cc1 — IC50 (crk3, with CYC6 (Leishmania mexicana, UniProt O15851); inhibitor, IMAP fluorescence polarisation; added: ATP 100 µM): 1500 nM
O=C[C@H](C[C@@H]1CCNC1=O)NC(=O)[C@H](CC1CCCCC1)NC(=O)OCc1ccccc1 — IC50 (Replicase polyprotein 1ab main protease; enzyme activity, inhibitor, FRET): 690 nM
CC(C)C[C@H](NC(=O)[C@@H](NC(=O)[C@H](CCONC(=N)N)NC(=O)OCc1ccccc1)C1CCCCC1)[C@@H](O)CC(=O)NCCc1ccccc1 — IC50 (Plasmepsin X; enzyme activity, inhibitor): > 99000 nM
O=C[C@H](C[C@@H]1CCNC1=O)NC(=O)[C@H](CC1CCCCC1)NS(=O)(=O)c1ccc(Cl)cc1 — IC50 (Replicase polyprotein 1a 3C-like proteinase; enzyme activity, FRET; NL-2010): 24200 ± 6990 nM
Cc1cccc(-c2ccc3nc(NC(=O)C4CCCC4)nn3c2)c1 — IC50 (CDK2 with cyclin A; enzyme activity, inhibitor): > 100000 nM
CC(C)C[C@H](NC(=O)OCc1cccc(Cl)c1)C(=O)N[C@H](C=O)C[C@@H]1CCNC1=O — IC50 (Replicase polyprotein 1ab main protease; enzyme activity, inhibitor, FRET): 880 nM
COc1ccc(C=CC(=O)c2cccc(O)c2)c2ccccc12 — IC50 (MED23 with ELF3; SEAP reporter gene, inhibitor): 1720 ± 20 nM

A few entries again:
Oc1ccccc1C1=NN(c2ccccc2)C(c2cccc(C(F)(F)F)c2)C1 (centres unmarked) — IC50 (Urease; enzyme activity, inhibitor, absorbance; pH 8.2): 18400 nM
CNC(=O)NC1=CC(=O)CC(C)(C)C1 — IC50 (CDK2 with cyclin A; enzyme activity, inhibitor): > 100000 nM
O=C(Nc1nc2ccc(-c3cccc4ccccc34)cn2n1)C1CCCCC1 — IC50 (crk3; enzyme activity, inhibitor, radiometric): 90 nM
Oc1ccccc1C1=NN(c2ccccc2)C(c2cccs2)C1 (centres unmarked) — IC50 (Urease; enzyme activity, inhibitor, absorbance; pH 8.2): 29500 nM
